Experimental data from different studies.
Every numbered part comes from another study and shows a few of its results, in no order.
UniProt Q9P289, sequence (whole entry, looked up): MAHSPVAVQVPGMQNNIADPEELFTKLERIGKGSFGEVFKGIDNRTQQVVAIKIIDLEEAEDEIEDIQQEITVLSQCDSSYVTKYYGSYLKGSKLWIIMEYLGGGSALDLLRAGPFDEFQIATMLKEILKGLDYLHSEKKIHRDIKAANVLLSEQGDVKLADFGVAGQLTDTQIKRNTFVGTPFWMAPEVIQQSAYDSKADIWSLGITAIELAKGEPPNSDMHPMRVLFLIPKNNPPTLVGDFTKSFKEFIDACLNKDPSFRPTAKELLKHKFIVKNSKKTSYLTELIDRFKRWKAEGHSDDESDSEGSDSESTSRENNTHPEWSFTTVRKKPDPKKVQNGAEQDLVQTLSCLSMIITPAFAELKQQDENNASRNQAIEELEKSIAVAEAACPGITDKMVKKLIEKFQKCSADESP

Set 1 — method: RNAcompete; form: RNA; medium: in vitro; tested at: 20 nM; setting: 7-mer, probes averaged, single round; relative to: mean of 7-mers; reading: higher = stronger binding
Target: PABPC1L2, full length, GST fusion (mouse, UniProt A0ABA7IW68)
Target sequence (chain): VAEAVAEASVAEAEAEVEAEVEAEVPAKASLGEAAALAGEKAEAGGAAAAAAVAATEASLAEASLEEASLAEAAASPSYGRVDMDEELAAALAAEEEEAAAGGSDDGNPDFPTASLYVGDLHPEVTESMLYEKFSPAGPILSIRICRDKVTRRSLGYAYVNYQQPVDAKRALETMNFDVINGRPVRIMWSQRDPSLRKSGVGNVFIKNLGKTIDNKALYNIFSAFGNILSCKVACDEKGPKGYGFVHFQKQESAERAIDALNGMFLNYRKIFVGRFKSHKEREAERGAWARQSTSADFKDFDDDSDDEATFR
The 7-mer Z-score of `CGAGCGU` is reported as -0.0718.
The 7-mer Z-score of `AGAGCCA` is reported as -0.103.
For `GGGGUGC`, the 7-mer Z-score was 0.263.
With `AAUGUAC` the 7-mer Z-score was -0.0663.
`GACAUGU` has a 7-mer Z-score of -0.0935.
The 7-mer Z-score of `ACUAGGA` is reported as 0.104.
The 7-mer Z-score of `GACAUCG` is reported as -0.231.
With `GAGGCCC` the 7-mer Z-score was -0.202.

Set 2 — method: protein-binding microarray; form: double-stranded DNA, one strand shown; medium: in vitro; tested at: 250 nM; setting: 60-bp whole probe; with: salmon DNA 0.4 mg/ml; relative to: random background probes; reading: higher = stronger binding; constant ends, left off below: GCCTAGCAC … GTCTTGATTCGCTTGACGCTGCTG
Target: Interferon regulatory factor 7, full length, phosphomimetic (IRF7, Homo sapiens, UniProt Q92985, residues 1-503, S101K/S471D/S472D/S475D/S476D/S477D/S483D/S484D/S487D)
Residues (chain): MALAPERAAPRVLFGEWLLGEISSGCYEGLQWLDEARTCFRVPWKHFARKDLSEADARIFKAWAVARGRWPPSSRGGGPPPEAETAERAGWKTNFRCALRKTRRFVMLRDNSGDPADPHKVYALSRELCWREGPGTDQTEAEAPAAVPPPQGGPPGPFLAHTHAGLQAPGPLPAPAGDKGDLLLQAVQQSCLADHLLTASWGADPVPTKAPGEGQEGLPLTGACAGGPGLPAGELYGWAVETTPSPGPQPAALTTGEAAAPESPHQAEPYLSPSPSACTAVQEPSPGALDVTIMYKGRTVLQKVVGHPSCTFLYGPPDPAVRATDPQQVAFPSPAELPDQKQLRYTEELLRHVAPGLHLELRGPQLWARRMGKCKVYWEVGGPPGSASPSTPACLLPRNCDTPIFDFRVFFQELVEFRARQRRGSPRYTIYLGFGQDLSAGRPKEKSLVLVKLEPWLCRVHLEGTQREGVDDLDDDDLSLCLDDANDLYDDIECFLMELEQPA
For `TTAGAACTGGGTCTCGATTAGTGCTAG`, the log fluorescence was 0.922 z-score.
With `TCACTTCTGGTGCTCATCTGGTGCTAG` the log fluorescence was 0.523 z-score.
`GACGAACTGGGGTTTCGAGATGTGCTA` gave a log fluorescence of 2.86 z-score.
With `TTAGATACCGGGTTTCGATTAGTGCTA` the log fluorescence was 7.12 z-score.
For `TCAGACATCTTCATCAAACTGTGCTAG`, the log fluorescence was 0.0506 z-score.
`GGCGGTCTCCTTATCCTGACGTGCTAG` has a log fluorescence of -0.253 z-score.
For `GACGGACTGGACTAGCGGGACGTGCTA`, the log fluorescence was -0.751 z-score.
`TTAGGACTGCTTTTTCTTTAGTGCTAG` gave a log fluorescence of 0.789 z-score.

Further values, each from its own experiment
`CO[C@H]1CC[C@H](CNc2ccc(S(=O)(=O)NC(=O)c3ccc(N4CCN(CC5=C(c6ccc(Cl)cc6)CC(C)(C)CC5)CC4)cc3Oc3cnc4[nH]ccc4c3)cc2[N+](=O)[O-])CC1` has a remaining binding of 97% (Serine/threonine-protein kinase 26 (STK26, Homo sapiens, UniProt Q9P289); cell-free assay, competition with immobilised ligand; 1 µM).
`PhoQ, residues 284 288 289 292 302 303 ALSMDL` has a fold induction of 2.53 (PhoP, residues 12 14 15 18 19 NHFIF (Escherichia coli, UniProt P23836); Sort-seq, item: YFP reporter; E. coli; PhoQ-PhoP variant library, with: 10 µM Mg2+; relative to: high Mg2+ state, higher = stronger signaling).

Repeated from above (set 2):
For `TCAGACATCTTCATCAAACTGTGCTAG`, the log fluorescence was 0.0506 z-score.
`GGCGGTCTCCTTATCCTGACGTGCTAG` has a log fluorescence of -0.253 z-score.
